Measurements gathered from unrelated publications.
Compare with care: the assays were run in different laboratories. ± gives the spread as reported.
YES1 SH2 domain: Tyrosine-protein kinase Yes, SH2 domain (YES1, Homo sapiens, UniProt P07947)
Chain of UniProt P07947 (whole entry, looked up): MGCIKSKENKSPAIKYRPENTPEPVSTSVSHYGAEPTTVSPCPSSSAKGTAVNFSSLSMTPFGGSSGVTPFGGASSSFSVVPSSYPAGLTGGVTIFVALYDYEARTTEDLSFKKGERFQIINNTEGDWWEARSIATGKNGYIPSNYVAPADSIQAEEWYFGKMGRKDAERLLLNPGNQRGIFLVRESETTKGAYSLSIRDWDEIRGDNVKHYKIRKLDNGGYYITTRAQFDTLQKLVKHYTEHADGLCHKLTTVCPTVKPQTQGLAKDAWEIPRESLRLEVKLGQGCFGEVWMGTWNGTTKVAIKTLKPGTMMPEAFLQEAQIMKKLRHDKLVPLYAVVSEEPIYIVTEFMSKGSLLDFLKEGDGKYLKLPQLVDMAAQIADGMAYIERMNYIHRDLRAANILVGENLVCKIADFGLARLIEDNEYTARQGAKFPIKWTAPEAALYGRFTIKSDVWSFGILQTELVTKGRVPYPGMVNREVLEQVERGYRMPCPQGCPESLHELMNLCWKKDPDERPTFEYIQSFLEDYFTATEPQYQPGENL
GRB2 SH2 domain: Growth factor receptor-bound protein 2, SH2 domain (GRB2, Homo sapiens, UniProt P62993)
Chain of UniProt Q8LBL5 (whole entry, unmodified, looked up): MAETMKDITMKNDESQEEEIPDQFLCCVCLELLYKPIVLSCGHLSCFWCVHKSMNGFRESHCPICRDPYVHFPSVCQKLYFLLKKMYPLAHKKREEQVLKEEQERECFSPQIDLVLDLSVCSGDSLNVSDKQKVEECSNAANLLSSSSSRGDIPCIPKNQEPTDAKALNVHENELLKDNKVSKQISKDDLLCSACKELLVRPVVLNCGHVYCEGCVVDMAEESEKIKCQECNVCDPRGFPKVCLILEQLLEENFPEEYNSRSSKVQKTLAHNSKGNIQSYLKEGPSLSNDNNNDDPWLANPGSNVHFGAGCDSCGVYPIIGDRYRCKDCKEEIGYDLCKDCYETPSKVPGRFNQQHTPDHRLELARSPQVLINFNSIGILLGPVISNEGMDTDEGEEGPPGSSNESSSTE
Chain of UniProt P21553 (whole entry, unmodified, looked up): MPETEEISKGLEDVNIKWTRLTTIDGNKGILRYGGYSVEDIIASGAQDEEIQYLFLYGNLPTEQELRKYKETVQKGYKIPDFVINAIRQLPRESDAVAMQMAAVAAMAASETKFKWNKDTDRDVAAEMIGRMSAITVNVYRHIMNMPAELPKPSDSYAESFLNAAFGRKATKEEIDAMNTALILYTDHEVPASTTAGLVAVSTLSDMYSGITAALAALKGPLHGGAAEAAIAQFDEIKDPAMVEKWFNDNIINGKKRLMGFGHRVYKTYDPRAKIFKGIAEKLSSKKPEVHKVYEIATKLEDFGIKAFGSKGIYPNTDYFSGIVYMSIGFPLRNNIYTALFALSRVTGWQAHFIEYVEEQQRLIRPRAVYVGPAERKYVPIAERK
Chain of UniProt Q70CQ1 (whole entry, looked up): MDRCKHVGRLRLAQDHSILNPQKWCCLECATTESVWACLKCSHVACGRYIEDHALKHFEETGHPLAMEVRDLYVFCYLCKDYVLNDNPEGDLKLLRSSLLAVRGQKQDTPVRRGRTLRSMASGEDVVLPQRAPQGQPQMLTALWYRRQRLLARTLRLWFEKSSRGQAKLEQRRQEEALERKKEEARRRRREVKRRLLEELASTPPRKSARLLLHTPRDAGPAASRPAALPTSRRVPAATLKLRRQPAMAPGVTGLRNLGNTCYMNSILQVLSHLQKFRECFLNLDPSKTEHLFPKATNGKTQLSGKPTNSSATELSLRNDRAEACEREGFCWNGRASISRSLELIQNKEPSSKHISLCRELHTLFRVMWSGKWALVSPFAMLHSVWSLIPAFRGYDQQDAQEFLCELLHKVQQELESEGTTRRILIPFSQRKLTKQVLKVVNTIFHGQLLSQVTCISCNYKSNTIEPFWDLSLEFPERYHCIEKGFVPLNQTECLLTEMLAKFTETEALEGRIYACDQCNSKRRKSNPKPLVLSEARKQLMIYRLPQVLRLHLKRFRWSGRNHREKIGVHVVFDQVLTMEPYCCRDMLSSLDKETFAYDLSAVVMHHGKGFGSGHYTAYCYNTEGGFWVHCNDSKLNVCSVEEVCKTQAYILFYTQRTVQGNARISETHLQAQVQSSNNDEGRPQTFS
Chain of UniProt P03023 (whole entry, unmodified, looked up): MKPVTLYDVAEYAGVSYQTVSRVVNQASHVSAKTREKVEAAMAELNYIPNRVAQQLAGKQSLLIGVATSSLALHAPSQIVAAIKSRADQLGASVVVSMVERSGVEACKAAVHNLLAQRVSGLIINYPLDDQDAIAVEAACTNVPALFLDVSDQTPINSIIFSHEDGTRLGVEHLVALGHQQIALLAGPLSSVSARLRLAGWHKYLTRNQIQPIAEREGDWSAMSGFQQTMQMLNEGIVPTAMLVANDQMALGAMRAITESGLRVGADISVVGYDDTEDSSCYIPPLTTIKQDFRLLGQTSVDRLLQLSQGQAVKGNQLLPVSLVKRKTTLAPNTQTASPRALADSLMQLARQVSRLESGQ
Chain of UniProt Q13094 (whole entry, looked up): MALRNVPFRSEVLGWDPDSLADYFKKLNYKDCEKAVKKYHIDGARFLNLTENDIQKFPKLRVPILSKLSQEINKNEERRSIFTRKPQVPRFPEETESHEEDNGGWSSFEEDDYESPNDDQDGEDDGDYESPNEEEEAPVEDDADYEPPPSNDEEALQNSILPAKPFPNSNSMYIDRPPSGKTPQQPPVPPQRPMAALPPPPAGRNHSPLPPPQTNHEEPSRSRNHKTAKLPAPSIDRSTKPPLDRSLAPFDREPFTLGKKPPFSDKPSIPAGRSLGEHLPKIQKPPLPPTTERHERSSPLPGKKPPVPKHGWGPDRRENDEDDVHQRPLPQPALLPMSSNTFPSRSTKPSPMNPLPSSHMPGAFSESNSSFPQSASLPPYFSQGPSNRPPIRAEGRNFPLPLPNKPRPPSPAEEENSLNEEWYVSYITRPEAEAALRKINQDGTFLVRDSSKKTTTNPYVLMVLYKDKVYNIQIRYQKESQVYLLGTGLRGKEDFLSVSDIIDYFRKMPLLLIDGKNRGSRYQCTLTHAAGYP
Chain of UniProt P53779 (whole entry, looked up): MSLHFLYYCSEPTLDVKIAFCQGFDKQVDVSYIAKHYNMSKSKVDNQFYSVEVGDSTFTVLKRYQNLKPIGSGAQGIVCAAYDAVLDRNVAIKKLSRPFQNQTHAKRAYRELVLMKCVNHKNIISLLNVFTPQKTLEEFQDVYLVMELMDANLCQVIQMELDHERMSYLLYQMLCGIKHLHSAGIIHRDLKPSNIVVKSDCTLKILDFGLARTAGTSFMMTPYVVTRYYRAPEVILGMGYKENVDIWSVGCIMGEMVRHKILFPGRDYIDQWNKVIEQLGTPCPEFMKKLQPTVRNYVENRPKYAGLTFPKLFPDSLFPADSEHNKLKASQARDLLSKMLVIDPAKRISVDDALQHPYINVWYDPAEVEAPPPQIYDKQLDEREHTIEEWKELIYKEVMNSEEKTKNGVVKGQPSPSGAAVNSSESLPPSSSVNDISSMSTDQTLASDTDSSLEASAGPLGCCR
Chain of UniProt P35218 (whole entry, looked up): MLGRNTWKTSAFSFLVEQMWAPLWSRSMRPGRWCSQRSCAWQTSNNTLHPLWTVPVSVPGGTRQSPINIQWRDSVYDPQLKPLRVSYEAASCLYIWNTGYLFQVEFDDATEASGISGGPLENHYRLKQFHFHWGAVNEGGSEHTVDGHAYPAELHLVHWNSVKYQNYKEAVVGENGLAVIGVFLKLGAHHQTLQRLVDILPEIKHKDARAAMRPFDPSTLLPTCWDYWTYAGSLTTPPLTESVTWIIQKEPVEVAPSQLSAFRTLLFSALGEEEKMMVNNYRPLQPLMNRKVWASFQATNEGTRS
Chain of UniProt P51451 (whole entry, looked up): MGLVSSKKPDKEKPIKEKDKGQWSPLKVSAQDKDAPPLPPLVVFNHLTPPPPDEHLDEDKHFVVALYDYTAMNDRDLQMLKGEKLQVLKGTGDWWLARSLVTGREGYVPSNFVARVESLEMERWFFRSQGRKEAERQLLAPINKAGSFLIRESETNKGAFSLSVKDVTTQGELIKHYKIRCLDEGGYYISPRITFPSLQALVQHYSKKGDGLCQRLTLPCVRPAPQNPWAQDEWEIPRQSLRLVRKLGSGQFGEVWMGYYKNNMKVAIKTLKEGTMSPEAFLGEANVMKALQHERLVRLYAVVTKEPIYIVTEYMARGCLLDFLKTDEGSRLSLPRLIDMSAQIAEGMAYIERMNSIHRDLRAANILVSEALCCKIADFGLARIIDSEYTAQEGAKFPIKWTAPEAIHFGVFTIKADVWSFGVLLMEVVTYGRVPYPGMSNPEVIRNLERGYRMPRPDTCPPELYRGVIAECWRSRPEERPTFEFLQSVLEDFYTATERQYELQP
Chain of UniProt P48730 (whole entry, looked up): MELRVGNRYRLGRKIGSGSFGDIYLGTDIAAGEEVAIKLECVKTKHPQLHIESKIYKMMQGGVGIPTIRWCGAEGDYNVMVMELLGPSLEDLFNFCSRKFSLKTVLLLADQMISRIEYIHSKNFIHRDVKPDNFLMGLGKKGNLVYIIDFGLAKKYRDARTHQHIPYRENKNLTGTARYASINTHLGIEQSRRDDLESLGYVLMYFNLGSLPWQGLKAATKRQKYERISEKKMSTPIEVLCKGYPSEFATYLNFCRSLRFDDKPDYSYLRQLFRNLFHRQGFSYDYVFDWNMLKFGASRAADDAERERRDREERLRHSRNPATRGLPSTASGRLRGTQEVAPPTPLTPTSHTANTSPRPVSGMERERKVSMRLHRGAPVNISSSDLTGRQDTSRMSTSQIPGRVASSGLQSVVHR
Chain of UniProt O49687 (55-253, looked up): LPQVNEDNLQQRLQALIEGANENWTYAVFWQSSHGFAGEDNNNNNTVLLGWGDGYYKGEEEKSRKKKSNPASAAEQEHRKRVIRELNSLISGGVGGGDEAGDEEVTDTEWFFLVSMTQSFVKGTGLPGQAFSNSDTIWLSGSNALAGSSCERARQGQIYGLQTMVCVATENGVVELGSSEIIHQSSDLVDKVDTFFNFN

| Structure (SMILES) | target | test | test system | setting | Kd [µM] |
| --- | --- | --- | --- | --- | --- |
| CC(C)S[C@@H]1O[C@H](CO)[C@H](O)[C@H](O)[C@H]1O | lacI (Escherichia coli, UniProt P03023, D149C/N125C) |  |  |  | 5.2 ± 0.2 |
| NCCCC[C@H](NC(=O)[C@@H](N)Cc1ccc(O)cc1)C(=O)N[C@@H](Cc1ccccc1)C(=O)O | E3 ubiquitin-protein ligase PRT1 (PRT1, Arabidopsis thaliana, UniProt Q8LBL5, I333A) | binding, ITC |  | pH 7.5, 25 °C, full-length I333A mutant | 13.7 ± 1.68 |
| CC[C@H](C)[C@H](NC(=O)[C@H](Cc1ccc(OP(=O)(O)O)cc1)NC(=O)[C@H](CCC(=O)O)NC(=O)[C@H](Cc1c[nH]cn1)NC(=O)CNC(=O)[C@H](CC(=O)O)NC(=O)[C@H](CO)NC(=O)[C@H](CO)NC(=O)[C@@H](NC(=O)[C@H](CO)NC(=O)[C@H](CCC(=O)O)NC(=O)c1ccc2c(c1)C(=O)OC21c2ccc(N(C)C)cc2Oc2cc(N(C)C)ccc21)C(C)C)C(=O)N[C@@H](Cc1ccc(O)cc1)C(=O)N[C@H](C(=O)N[C@@H](CC(=O)O)C(=O)N1CCC[C@H]1C(=O)N[C@@H](CCSC)C(=O)N[C@@H](CCC(N)=O)C(=O)N[C@@H](CC(=O)O)C(=O)O)C(C)C | YES1 SH2 domain | binding |  |  | 1.26 |
| CO[C@@H]1[C@@H](OC(N)=O)[C@@H](O)[C@H](Oc2ccc3c(O)c(NC(=O)c4ccc(O)c(CC=C(C)C)c4)c(=O)oc3c2C)OC1(C)C | Multidrug resistance operon repressor (mexR, Pseudomonas aeruginosa, UniProt P52003, E48A/Q49A) |  |  |  | 1530 |
| CC(C)C[C@H](NC(=O)[C@H](Cc1ccc(OP(=O)(O)O)cc1)NC(=O)[C@H](CCC(=O)O)NC(=O)[C@@H]1CCCN1C(=O)[C@H](CC(N)=O)NC(=O)CNC(=O)[C@@H](NC(=O)[C@H](C)NC(=O)[C@@H](NC(=O)[C@H](CO)NC(=O)[C@H](Cc1c[nH]cn1)NC(=O)c1ccc2c(c1)C(=O)OC21c2ccc(N(C)C)cc2Oc2cc(N(C)C)ccc21)[C@@H](C)O)C(C)C)C(=O)N[C@@H](CC(N)=O)C(=O)N[C@H](C(=O)N[C@H](C(=O)N[C@@H](CCC(N)=O)C(=O)N1CCC[C@H]1C(=O)N[C@H](C(=O)N[C@@H](CC(=O)O)C(=O)O)[C@@H](C)O)C(C)C)[C@@H](C)O | GRB2 SH2 domain | binding |  |  | 0.422 |
| O=C(Nc1nncs1)C(F)(F)Br | MAPK10 (Homo sapiens, UniProt P53779) |  |  | pH 7.4 | 318 |
| CC[C@H](C)[C@H](NC(=O)[C@H](Cc1ccc(OP(=O)(O)O)cc1)NC(=O)[C@H](CCC(=O)O)NC(=O)[C@@H]1CCCN1C(=O)[C@@H](NC(=O)[C@@H]1CCCN1C(=O)[C@H](CC(C)C)NC(=O)[C@H](Cc1ccccc1)NC(=O)[C@@H](NC(=O)[C@H](CC(=O)O)NC(=O)[C@H](CC(=O)O)NC(=O)c1ccc2c(c1)C(=O)OC21c2ccc(N(C)C)cc2Oc2cc(N(C)C)ccc21)[C@@H](C)O)C(C)C)C(=O)N[C@@H](CC(N)=O)C(=O)N[C@@H](CCC(N)=O)C(=O)N[C@@H](CO)C(=O)N[C@H](C(=O)N1CCC[C@H]1C(=O)N[C@@H](CCCCN)C(=O)N[C@@H](CC(=O)O)C(=O)O)C(C)C | GRB2 SH2 domain | binding |  |  | 0.198 |
| O=C(O)CCCN1CC=C(c2ccccc2)CC1 | Ubiquitin carboxyl-terminal hydrolase 49, ZnF-UBD domain (USP49, Homo sapiens, UniProt Q70CQ1) |  |  |  | > 1000 |
| CSCC[C@H](NC(=O)[C@H](Cc1ccc(OP(=O)(O)O)cc1)NC(=O)CNC(=O)CNC(=O)[C@H](CC(=O)O)NC(=O)[C@H](CO)NC(=O)[C@H](CCC(=O)O)NC(=O)CNC(=O)[C@@H](NC(=O)[C@H](CC(C)C)NC(=O)[C@H](CO)NC(=O)c1ccc2c(c1)C(=O)OC21c2ccc(N(C)C)cc2Oc2cc(N(C)C)ccc21)[C@@H](C)O)C(=O)N[C@@H](CC(=O)O)C(=O)N[C@@H](CCSC)C(=O)N[C@@H](CO)C(=O)N[C@@H](CCCCN)C(=O)N[C@@H](CC(=O)O)C(=O)N[C@@H](CCC(=O)O)C(=O)N[C@@H](CC(=O)O)C(=O)O | Tyrosine-protein kinase Blk, SH2 domain (BLK, Homo sapiens, UniProt P51451) | binding |  |  | 0.614 |
| NCCCC[C@H](N)C(=O)O | Uncharacterized protein (Pelagibacter ubique, UniProt Q4FM26) | isothermal titration calorimetry | Candidatus Pelagibacter ubique | direct titration | 0.195 ± 0.126 |
| CSCC[C@H](NC(=O)CNC(=O)[C@H](Cc1ccccc1)NC(=O)[C@H](CC(=O)O)NC(=O)CNC(=O)c1ccc2c(c1)C(=O)OC21c2ccc(N(C)C)cc2Oc2cc(N(C)C)ccc21)C(=O)N[C@@H](CO)C(=O)N[C@@H](CCCNC(=N)N)C(=O)N[C@@H](CC(=O)O)C(=O)N[C@H](C(=O)N[C@@H](Cc1ccc(OP(=O)(O)O)cc1)C(=O)N[C@@H](CO)C(=O)N[C@H](C(=O)N[C@@H](CC(=O)O)C(=O)N[C@@H](Cc1ccc(O)cc1)C(=O)N[C@@H](Cc1ccc(O)cc1)C(=O)N[C@@H](CCCNC(=N)N)C(=O)N[C@H](C(=O)N[C@@H](CC(=O)O)C(=O)O)C(C)C)[C@@H](C)O)C(C)C | Lymphocyte cytosolic protein 2, SH2 domain (Homo sapiens, UniProt Q13094) | binding |  |  | 1.02 |
| CC[C@H](C)[C@H](NC(=O)[C@H](CCCCN)NC(=O)[C@H](CO)NC(=O)[C@@H](NC(=O)[C@]1(C)CCCC=CCCC[C@](C)(NC(=O)[C@H](CCCNC(=N)N)NC(=O)[C@H](Cc2ccccc2)NC(=O)[C@H](CO)NC(=O)[C@H](CCCNC(=N)N)NC(=O)[C@H](CCCNC(=N)N)NC(=O)[C@H](CCCNC(=N)N)NC(=O)[C@H](CC(=O)O)NC(=O)[C@H](CC(C)C)NC(=O)[C@H](Cc2ccccc2)NC(=O)[C@H](CCCCN)NC(=O)[C@H](CCC(N)=O)NC(=O)[C@H](Cc2ccccc2)NC(=O)c2ccc(-c3c4ccc(=[N+](C)C)cc-4oc4cc(N(C)C)ccc34)c(C(=O)[O-])c2)C(=O)N[C@@H]([C@@H](C)CC)C(=O)N[C@@H](CCC(N)=O)C(=O)NCC(=O)N1)[C@@H](C)CC)C(=O)N[C@@H](CC(=O)O)C(=O)N1CCC[C@H]1C(=O)N[C@@H](CCC(=O)O)C(=O)N[C@]1(C)CCCC=CCCC[C@@](C)(C(=O)N[C@@H](CC(C)C)C(=O)N[C@@H](CC(C)C)C(=O)N[C@@H](C)C(=O)N[C@@H](CO)C(=O)N[C@H](C(=O)O)[C@@H](C)O)NC(=O)[C@H](CCCCN)NC(=O)[C@H]([C@@H](C)CC)NC1=O | Transcription factor MYC4, residues 55-253 (MYC4, Arabidopsis thaliana, UniProt O49687) | fluorescence anisotropy |  | protein titration, added: TMR-labelled tracer | 0.023 |
| CSCC[C@H](NC(=O)[C@H](CC(=O)O)NC(=O)c1ccc2c(c1)C(=O)OC21c2ccc(N(C)C)cc2Oc2cc(N(C)C)ccc21)C(=O)N[C@@H](CO)C(=O)N[C@@H](CCCCN)C(=O)N[C@@H](CC(=O)O)C(=O)N[C@@H](CCC(=O)O)C(=O)N[C@@H](CO)C(=O)N[C@H](C(=O)N[C@@H](CC(=O)O)C(=O)N[C@@H](Cc1ccc(OP(=O)(O)O)cc1)C(=O)N[C@H](C(=O)N1CCC[C@H]1C(=O)N[C@@H](CCSC)C(=O)N[C@@H](CC(C)C)C(=O)N[C@@H](CC(=O)O)C(=O)N[C@@H](CCSC)C(=O)N[C@@H](CCCCN)C(=O)N[C@@H](CC(=O)O)C(=O)O)C(C)C)C(C)C | YES1 SH2 domain | binding |  |  | 0.664 |
| N[C@@H](CO)C(=O)O | spt (Sphingomonas paucimobilis, UniProt Q93UV0) | UV-visible titration |  |  | 1400 |
| C[C@H](NC(=O)[C@H](CCCCN)NC(=O)[C@@H](N)Cc1ccccc1)C(=O)O | E3 ubiquitin-protein ligase PRT1 (PRT1, Arabidopsis thaliana, UniProt Q8LBL5) | ITC |  | pH 7.5, 25 °C | 9.67 ± 1.56 |
| CC[C@H](CO)Nc1nc(NCc2ccc(-c3ccccn3)cc2)c2ncn(C(C)C)c2n1 | CSNK1D (Homo sapiens, UniProt P48730) | binding, competition affinity chromatography | SH-SY5Y cell extract |  | 2.65 |
| Nc1cc2nc3ccccc3nc2cc1O | Multidrug resistance operon repressor (mexR, Pseudomonas aeruginosa, UniProt P52003) | surface plasmon resonance |  | 25 °C | 17.7 |
| CC(=O)CCCNC(=O)CCNC(=O)[C@H](O)C(C)(C)COP(=O)(O)OP(=O)(O)OC[C@H]1O[C@@H](n2cnc3c(N)ncnc32)[C@H](O)[C@@H]1OP(=O)(O)O | gltA, with oxaloacetate (Thermoplasma acidophilum, UniProt P21553, W116F/W18F/W246F) | fluorescence titration |  | 20 °C, added: oxaloacetate | 8.9 ± 0.3 |
| NS(=O)(=O)c1ccccc1 | CA5A (Homo sapiens, UniProt P35218) | thermal shift |  | pH 7.0, 25 °C | 2.86 |

A few entries again:
| Structure (SMILES) | target | test | test system | setting | Kd [µM] |
| --- | --- | --- | --- | --- | --- |
| CC[C@H](C)[C@H](NC(=O)[C@H](CCCCN)NC(=O)[C@H](CO)NC(=O)[C@@H](NC(=O)[C@]1(C)CCCC=CCCC[C@](C)(NC(=O)[C@H](CCCNC(=N)N)NC(=O)[C@H](Cc2ccccc2)NC(=O)[C@H](CO)NC(=O)[C@H](CCCNC(=N)N)NC(=O)[C@H](CCCNC(=N)N)NC(=O)[C@H](CCCNC(=N)N)NC(=O)[C@H](CC(=O)O)NC(=O)[C@H](CC(C)C)NC(=O)[C@H](Cc2ccccc2)NC(=O)[C@H](CCCCN)NC(=O)[C@H](CCC(N)=O)NC(=O)[C@H](Cc2ccccc2)NC(=O)c2ccc(-c3c4ccc(=[N+](C)C)cc-4oc4cc(N(C)C)ccc34)c(C(=O)[O-])c2)C(=O)N[C@@H]([C@@H](C)CC)C(=O)N[C@@H](CCC(N)=O)C(=O)NCC(=O)N1)[C@@H](C)CC)C(=O)N[C@@H](CC(=O)O)C(=O)N1CCC[C@H]1C(=O)N[C@@H](CCC(=O)O)C(=O)N[C@]1(C)CCCC=CCCC[C@@](C)(C(=O)N[C@@H](CC(C)C)C(=O)N[C@@H](CC(C)C)C(=O)N[C@@H](C)C(=O)N[C@@H](CO)C(=O)N[C@H](C(=O)O)[C@@H](C)O)NC(=O)[C@H](CCCCN)NC(=O)[C@H]([C@@H](C)CC)NC1=O | Transcription factor MYC4, residues 55-253 (MYC4, Arabidopsis thaliana, UniProt O49687) | fluorescence anisotropy |  | protein titration, added: TMR-labelled tracer | 0.023 |
| CSCC[C@H](NC(=O)[C@H](CC(=O)O)NC(=O)c1ccc2c(c1)C(=O)OC21c2ccc(N(C)C)cc2Oc2cc(N(C)C)ccc21)C(=O)N[C@@H](CO)C(=O)N[C@@H](CCCCN)C(=O)N[C@@H](CC(=O)O)C(=O)N[C@@H](CCC(=O)O)C(=O)N[C@@H](CO)C(=O)N[C@H](C(=O)N[C@@H](CC(=O)O)C(=O)N[C@@H](Cc1ccc(OP(=O)(O)O)cc1)C(=O)N[C@H](C(=O)N1CCC[C@H]1C(=O)N[C@@H](CCSC)C(=O)N[C@@H](CC(C)C)C(=O)N[C@@H](CC(=O)O)C(=O)N[C@@H](CCSC)C(=O)N[C@@H](CCCCN)C(=O)N[C@@H](CC(=O)O)C(=O)O)C(C)C)C(C)C | YES1 SH2 domain | binding |  |  | 0.664 |
| N[C@@H](CO)C(=O)O | spt (Sphingomonas paucimobilis, UniProt Q93UV0) | UV-visible titration |  |  | 1400 |
